# Assay results collected from several papers.
# Every numbered part comes from another study and shows a few of its results, in no order.

# Series 1
# Target: RNA binding protein fox-1 homolog 2, RRM domain, GST-SBP tag (RBFOX2, Homo sapiens, UniProt O43251-10, residues 100-194)
# Method: RNA Bind-n-Seq
# Form: RNA
# Matrix: in vitro
# Tested at: 365 nM
# Notes: natural RNA segment, single round, ends assumed
# Relative to: no-protein control
# Direction: higher = stronger binding
# Construct (chain): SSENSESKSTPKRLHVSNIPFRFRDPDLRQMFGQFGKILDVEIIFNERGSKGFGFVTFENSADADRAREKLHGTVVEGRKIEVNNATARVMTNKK
Sequence,RBNS enrichment (R)
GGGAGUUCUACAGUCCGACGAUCGUAUUCAUUUAUGCCUAAAUCUCUAUAACAGAUGAAAAGAUAAUUAAUAAAAUCCUAAUUAAAAAAUGAGAUCACCCACUAUCUAUCACUGCUUAGAUAAAAAGGGAAAGUGGAAUUCUCGGGUGCCAA,0.354
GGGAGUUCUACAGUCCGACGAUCAUUUAAAUGAGACAAUCAUAUUAUUUUAGAAUCAUUUAUUUUAAAUGAGACAAUCAUUUUAAGUUUUAAGAUAACAGAAGUGACCAAUGUAAUUUCACAACACCUAAGGAUGGAAUUCUCGGGUGCCAA,0.254
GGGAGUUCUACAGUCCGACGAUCUUCCCACUAGAAAAGGCGCUCCUGUGGUGGCCACCUCUGUCUUCCUACUGAGAACUUCCUGUUCCAGGUUUUAGAAUUUUCUUAUUGUCGUUAGGACCAAAUGUAGACUGUGGAAUUCUCGGGUGCCAA,0.529
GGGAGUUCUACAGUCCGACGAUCGACUGAUGAGUCAGUCACAGUUCCACUGACUCCCAGUUACUGUUCUGAUUAGUGGUAGUUAUUUGCUGGGAACUGACAAAGUUCAUCUUGGCAAUGAUUAAACCCAGCUUUGGAAUUCUCGGGUGCCAA,0.327
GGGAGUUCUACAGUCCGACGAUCAAACAGCGAGAAUGAAGAGCUACAUUCUUGCAGACGAGCUGUAGGUCGUACACGAAUGUCUAAAGAGACAUUCAAAACUCGAAUAGGGUGCAGAGUAAUUUCUUACUGUGUGGAAUUCUCGGGUGCCAA,0.28
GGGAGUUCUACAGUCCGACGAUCGAAACCAAGCCCACGGUCUUGGCCGUGACCCUGAUAAUAAAUGGGCUCUCUCAGAGGCGCCAGCCCCUCCCUCCCCAGCCGGAGGCGUCAUCUCUCUUCUGUACCACUAGUGGAAUUCUCGGGUGCCAA,0.326
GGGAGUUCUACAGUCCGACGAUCUUUCCCCUUGAUGGAAAUUGACCAUACAAUUUCAUCCUCCUUCAGGGGAUCAAAAGGACGGAGUGGGGGGACAGAGACUCAGAUGAGGACAGAGUGGUUUCCAAUGUGUUUGGAAUUCUCGGGUGCCAA,0.702
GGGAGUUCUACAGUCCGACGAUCAGACCAUACCCAACUCAUGUGCAUGUGCCGUUUUUGCUUCAAGCUCAGUAGCAGGACCUGCCCCGAGCCCCCUGCUCCUUGCCCCUCUGUGAGGAGUUACGGAGAGGGCUUGGAAUUCUCGGGUGCCAA,3.74
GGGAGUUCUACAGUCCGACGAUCUUGUGUGGCUGAUGUGUCUGGAAAUGAUGUAGUUCAGGAAAGCAUUUUUUUUUUCUUUGAACCUUAAAGGUUCUAUUAUUAAAAGCAGCACAGAUUCCACAUUUUUAUACUGGAAUUCUCGGGUGCCAA,0.877
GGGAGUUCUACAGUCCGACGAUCGUCCACACUAGAAAGAAGCUCGCCCCACCUCCACCUGUGAGAUCCGUGAAUUCUCGGAAUGGCAGGGGAAGCCUUGCACUAGGUUGCAGAGAAGCAUCCUCCACAUCCUGUGGAAUUCUCGGGUGCCAA,1.38
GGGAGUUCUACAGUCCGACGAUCCUUCUAUUCAAUUGGGAAAAUUUGAACCAAAGCAGAUUUCUUCAGGGCUGAGGGUCUCCAACCGAUGCAUAGAUACAUUGAAAUACUUUAGAUUUCCCACAUGGAUGGUUUGGAAUUCUCGGGUGCCAA,1.27
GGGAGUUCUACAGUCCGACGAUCCCAUUGGAAUUGAGGGUAUGUACAGAGAAGUUGGUGUCAAUGCCAUUUAAUAAGUCAUAUUUUUUCACAAAUAAGGAAAAAUCAUUUUAAUGAGAAUUUUAAGUAUUUGCUGGAAUUCUCGGGUGCCAA,0.362

# Series 2
# Target: Ras GTPase-activating protein-binding protein 1, full length (G3BP1, Homo sapiens, UniProt Q13283)
# Chain of UniProt Q13283 (whole entry, looked up): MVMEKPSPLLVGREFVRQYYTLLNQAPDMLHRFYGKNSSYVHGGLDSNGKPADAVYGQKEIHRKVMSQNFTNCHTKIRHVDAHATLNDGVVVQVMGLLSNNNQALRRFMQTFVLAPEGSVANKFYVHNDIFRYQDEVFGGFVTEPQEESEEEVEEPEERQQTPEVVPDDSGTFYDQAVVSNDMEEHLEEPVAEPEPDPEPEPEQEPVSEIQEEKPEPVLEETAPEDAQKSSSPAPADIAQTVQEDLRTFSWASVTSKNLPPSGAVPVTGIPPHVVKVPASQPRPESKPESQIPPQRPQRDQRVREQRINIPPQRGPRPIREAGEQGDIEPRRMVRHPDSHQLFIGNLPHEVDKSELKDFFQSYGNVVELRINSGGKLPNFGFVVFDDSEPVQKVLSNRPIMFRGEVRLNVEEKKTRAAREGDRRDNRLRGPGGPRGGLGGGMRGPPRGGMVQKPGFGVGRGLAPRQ
# Method: RNA Bind-n-Seq
# Form: RNA
# Matrix: in vitro
# Tested at: 200 nM
# Notes: whole 134-nt RNA, ends assumed
# With: 150 mM KCl
# Relative to: input library
# Direction: higher = stronger binding
Sequence,log2 enrichment
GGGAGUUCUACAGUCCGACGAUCGCAGGAAGUAAAAACAAAUGGAAAUGCUUCAGAUAGUGGCAGGGGUGGGGGUUGCUAAGGAAAGGGUGGGAUGGGAGUGGGUAAAGAGUUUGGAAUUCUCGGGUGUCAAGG,0.776
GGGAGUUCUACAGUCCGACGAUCUAACUUUAGAGGAGGAUAUGAUGGAUAUGGCAGUGGACGUGGAUUUGGGGAUGGCUAUAAUGGGUAUGGAGGAGGACCUGGAGGUGGCAAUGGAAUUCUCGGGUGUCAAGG,0.484
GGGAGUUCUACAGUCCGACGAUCAGUCCUGUGCUACACAUCGUAUGUACCGAAUCGGAAAAAAAGGAAAGGAAAAAAAGGAAAGUAUUAUGUUACGCCGUUCGGAUCUGCACUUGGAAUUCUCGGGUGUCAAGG,-1.08
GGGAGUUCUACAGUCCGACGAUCGUCCUGUGCUACACAUCGUAUGUACCGAAUCGGGGAAAAAGGGGUGGGGAAAAAGGGGAAAGUAUUAUGUUACGCCGUUCGGAUCUGCACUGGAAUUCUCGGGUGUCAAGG,0.335
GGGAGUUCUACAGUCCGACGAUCUGGGAGGUGGAUUUUGUUUAUUUUUUUAGCUCAUUUCCAGGGGUGGGAAUUUUUUUUUAAUAUGUGUCAUGAUUAAAGUUGUUUUUGAAAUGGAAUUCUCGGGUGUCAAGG,0.533
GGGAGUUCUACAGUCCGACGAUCUCAAGUCCUGUGCUACACAUCGUAUGUACCGAAUCGGGGUUGGUUGGGGUUGGGAAAGUAUUAUGUUACGCCGUUCGGAUCUGCACUUCCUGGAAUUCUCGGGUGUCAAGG,0.482
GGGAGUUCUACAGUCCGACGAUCUAACUUUAGAGGAGGAUCUGAUGGAUAUGGCAGUGGACGUGGAUUUGGGGAUGUCUAUAAUGGGUAUGGAGGAGGACCUGGAGGUGGCAAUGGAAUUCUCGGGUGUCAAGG,0.381
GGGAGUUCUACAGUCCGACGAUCUGGCCCUGGUGGCAUGCGGGGAGGAAGAGGUGGCCUCAUGGAUCGUGGUGGUCCCGAUGGAAUGUUCAGAGGUGGCCGUGGUGGAGACAGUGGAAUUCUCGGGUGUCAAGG,0.0816
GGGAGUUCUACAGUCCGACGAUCUGGCCCUGGUGGCAUGCGGGGAGGAAGAGGUGGCCUCAUGGAUCGUGGUGGUCCCGGUGCAAUGUUCAGAGGUGGCCGUGGUGGAGACAGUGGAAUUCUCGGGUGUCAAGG,-0.0405
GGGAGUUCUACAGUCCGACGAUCCUGUGCUACACAUCGUAUGUACCGAAUCGGGGAAAGGGGAAAAAAAGGGGAAAAAAAGGGGAAAGUAUUAUGUUACGCCGUUCGGAUCUGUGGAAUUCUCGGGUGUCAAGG,-0.136
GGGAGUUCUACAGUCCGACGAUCGCAGGAAGUAAAAACAAAUGGAAAUGCUUCGGAUAGUGGCAGGGGUGGGGGUUGCUAAGGAAAGGCUGGGAUGGGAGUGGGUAAAGAGUUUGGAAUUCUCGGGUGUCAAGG,0.859
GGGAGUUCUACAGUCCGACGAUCCUGUGCUACACAUCGUAUGUACCGAAUCGGAAAAAAAGGGAAAAAAAGGGAAAAAAAGGGGAAAGUAUUAUGUUACGCCGUUCGGAUCUGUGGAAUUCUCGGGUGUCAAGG,-0.887
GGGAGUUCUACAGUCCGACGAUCCCUCAAGUCCUGUGCUACACAUCGUAUGUACCGAAUCGGGGAAGGAAGGAAGGAAAGUAUUAUGUUACGCCGUUCGGAUCUGCACUUCCAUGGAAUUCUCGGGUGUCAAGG,-0.211
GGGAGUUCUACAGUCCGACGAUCGCAGGAAGUAAAACCAAAUGGAAAUGCUUCGGAUAGUGGCAGGGGUGGGGGUUGCUAAGGAAAGGGUGGGAUGGGAGUGGGUAAAGAGUUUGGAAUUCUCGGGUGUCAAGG,1.51

# Series 3
# Target: RING finger protein unkempt homolog, zinc fingers 1-6, GST-SBP tag (UNK, Homo sapiens, UniProt Q9C0B0, residues 30-357)
# Chain of UniProt Q9C0B0 (30-357, looked up): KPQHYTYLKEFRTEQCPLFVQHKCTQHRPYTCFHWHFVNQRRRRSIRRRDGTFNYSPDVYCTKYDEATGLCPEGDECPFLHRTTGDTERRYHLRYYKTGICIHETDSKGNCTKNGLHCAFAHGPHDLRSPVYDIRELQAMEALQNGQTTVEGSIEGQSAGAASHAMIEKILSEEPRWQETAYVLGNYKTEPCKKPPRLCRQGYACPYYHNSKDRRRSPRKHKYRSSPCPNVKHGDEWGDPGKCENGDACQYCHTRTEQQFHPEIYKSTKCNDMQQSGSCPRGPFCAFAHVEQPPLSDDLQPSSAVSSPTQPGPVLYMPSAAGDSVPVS
# Method: RNA Bind-n-Seq
# Form: RNA
# Matrix: in vitro
# Tested at: not given
# Notes: RNA with constant flanks, human-mouse chimeric sites, ends assumed
# Relative to: input RNA pool
# Direction: higher = stronger binding
Sequence,bound/input enrichment
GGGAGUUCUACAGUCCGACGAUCUGACAAGGGCACUGCAGAGCCAUGCCUUUCCUUGACAUACAGAAAAAGUUCGGCCUUAGCCUGGACCGGCACUUUAUGUUCCUAAGCGCAGAACAGCCCUACAAGAUCGCCGCUCGGUGCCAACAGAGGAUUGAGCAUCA,0.103 ratio
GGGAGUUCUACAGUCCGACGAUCAAAGAACUACUGAGGCAAGGCAGCAAAUUUAGGAGAGACAUUUCAACAAUAUUGAUAGAGUUAGGAUUCCAAAUUAAAAAAAAAACUAAAAGAUUGUACAUCAACAAAGCCAAUGUGUGGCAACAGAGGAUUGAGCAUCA,11.1 ratio
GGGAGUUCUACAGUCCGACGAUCAAAGUGAUGACUAUGUUUGUCCAACGACAGGUAUUUUCUGAGAACAAAGAUGAGAUUGCGUUAGUCCUCUAUGGCACAGAUGGCACUGACAAUCCCCUUGCUGGCAAGGACCAGUAUCAGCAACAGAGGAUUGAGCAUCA,0.117 ratio
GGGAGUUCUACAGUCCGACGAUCGGCUGCUGGUGACUGUCCUGGAGUGGCUGGAGUUCCCGCCGGAGCGCGGCCAGACUAAUUUUAGAAAAUGCCAAGUAGGAAAUUUGCUGAGGGUGAAGUGGUAAGAGGCCGAUGGCCUGGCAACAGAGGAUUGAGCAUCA,4.62 ratio
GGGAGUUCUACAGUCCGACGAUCUCUGGUCAUACUCGUGCGUAUGGUGUUUGCUUUGUGGAUACUUCACUGGGCAAGUUUUUCAUCGGCCAGUUUUCGGAUGACCGCCACUGUUCCAGAUUUAGGACGCUAGUGGCUCACUAUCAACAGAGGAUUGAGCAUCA,0.193 ratio
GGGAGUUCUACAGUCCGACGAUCUCAGAAGAGGUGCUGGGUCACUUUUCAUAUCCAGAUCCUUCACAGUGGACAGAUGAAGAACUGGGAAUCCCUCCUGAUGACGAGGACUGACACUGUAAACUCUCUGGACGAGUAGGAGCACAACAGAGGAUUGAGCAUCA,0.945 ratio
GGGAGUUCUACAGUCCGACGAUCCUGUGACCACAAGAUCCUGAAGUUUGAGCAGCUGAAGUUGACUCCCUCUCCUUGCCUGCCUAGUUUCCCACUGCCCCCCCAUCCCCCAGUGUCGGCUGAGAUGUUGCCUCUGCACGGUUCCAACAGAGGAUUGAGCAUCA,1.34 ratio
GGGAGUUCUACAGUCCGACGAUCUCAUUUUGCUCGGGUUAGAUCGUCAGGUAGGAAAAGCCUAAAGAUUAGGUUGUAAGAAAAACAGAAGCCAUGUUUCGAAGACCUGUGUUACAGGUAUUUCGUCAGUUUGUAAGACAUGAGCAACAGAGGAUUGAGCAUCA,2.75 ratio
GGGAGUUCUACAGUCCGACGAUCGUUCGACUCUGGGAUCAUGCCACAAUGACAGAAGUGAAAUCUCUGAAUUUUAAUAUGUCUGUUAGCAGCAUGGAGUAUAUUCCUGAGGGAGAGAUUUUGGUUAUUACUUAUGGACGAUCUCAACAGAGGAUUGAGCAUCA,0.365 ratio
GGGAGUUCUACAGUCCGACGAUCGCAAAGGAUGAUGAGGCGGCAGCUGUUGCCCUUUCCUCUCUCGUUCAUGCUUUGGAUGAGUUAAACAUGGUCGCCAUAGUUCGAUAUGCUUAUGACAAAAGAUCUAAUCCUCAAGUCGGUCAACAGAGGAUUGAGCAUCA,0.822 ratio
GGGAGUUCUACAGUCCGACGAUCGCAGGAUCUUCUAAGUACCAGUGGGACAUUAUGAAAUCCCUUGGGCUGUCUGAUGAAGACAUAGUGAAGUUUUCUGAAGCAGAGCACUGGCUUGAUUAUUUCCCACCACUGGCUAUUCAGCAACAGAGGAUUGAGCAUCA,0.142 ratio

# Series 4
# Target: Histone acetyltransferase KAT6A, winged helix 2, GST fusion (KAT6A, Homo sapiens, UniProt Q92794, residues 85-181)
# Method: protein binding microarray
# Form: double-stranded DNA, one strand shown
# Matrix: in vitro
# Tested at: not given
# Notes: 8-mer, flanks averaged, mean of 2 arrays, mostly near background
# Relative to: not given
# Direction: higher = stronger binding
# Target sequence (chain): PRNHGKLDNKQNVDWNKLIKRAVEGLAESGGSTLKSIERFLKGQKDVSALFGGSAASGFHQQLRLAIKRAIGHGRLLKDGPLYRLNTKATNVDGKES
Sequence,E-score
ACGTTGAT,-0.0281
AAACGCAT,-0.0406
GGGAACCA,-0.115
GTGGAGGA,0.014
CACAGAAA,0.165
GATTCGCA,0.0825
TGTCAAAA,0.0308
GCGCCCAA,0.211
CACTGATC,-0.0476
ACGCAAGC,0.125
CCCGGACC,0.0817
CCTGCGCG,0.205
CAAGCAGG,-0.00707
CCTCTAAG,-0.0376
CTCTTTAA,0.0147
GAGATCGA,0.0591
